Published values pooled from the literature.
Each line is one published result; not all experiments were run side by side. Numbers after ± are the reported error. Values after ≈ are worked out from the molar mass of the structure shown.

Compound | organism | assay | system | setting | scale | quantity | value
CC1(CCCCCCCCCCCCCCOCCCOP(=O)(O)CO[C@H](CO)Cn2ccc(N)nc2=O)COC1 | JC polyomavirus | qPCR | COS-7, MAD-4 |  | baseline: CC50 over EC50 | selectivity index | 1
C=C(C)[C@@H]1CC[C@]2(COS(=O)(=O)c3ccc(C)cc3)CC[C@]3(C)[C@H](CC[C@@H]4[C@@]5(C)CCCNC(C)(C)[C@@H]5CC[C@]43C)[C@@H]12 | Human cytomegalovirus | cytopathic effect | HFF, AD169 |  |  | EC90 | > 1.2 µM
C[C@@H](c1ccn(Cc2ccc(Cl)cc2)n1)[C@](O)(Cn1cnnn1)c1ccc(F)cc1F | Candida tropicalis | growth, broth microdilution | 2718 | 24 h, 30 °C, ≥50% inhibition |  | MIC | < 0.008 µg/mL
CN(C)c1cc(CNCCC(C)(C)C)c(O)c2c1C[C@H]1C[C@H]3[C@H](N(C)C)C(O)=C(C(N)=O)C(=O)[C@@]3(O)C(O)=C1C2=O | Streptococcus pneumoniae |  | ATCC 700905, Tet M ribosome protection |  |  | MIC | 0.25 µg/mL (≈ 0.438 µM)
Cc1ccc(-c2cn([C@@H]3O[C@H](CO)[C@@H](O)[C@H]3O)c3ncnc(N)c23)c(F)c1 | Trichomonas vaginalis | resorufin | G3, metronidazole-sensitive | 24 h + 2 h, 2% O2 |  | EC50 | 0.23 ± 0.02 µM
CN(C)c1cc(CN2CCCC2)c(O)c2c1C[C@H]1C[C@H]3[C@H](N(C)C)C(O)=C(C(N)=O)C(=O)[C@@]3(O)C(O)=C1C2=O | Streptococcus pneumoniae |  | ATCC 700905, Tet M ribosome protection |  |  | MIC | 0.25 µg/mL (≈ 0.462 µM)
CCOC(=O)c1c(-c2ccc(F)c(F)c2)oc2ncccc12 | Trypanosoma cruzi |  | 3T3 host cells, Tulahuen beta-galactosidase | 6 days |  | EC50 | 10.9 µM
c1ccc(-c2nc(-c3ccc4ccccc4c3)c[nH]2)cc1 | Schistosoma mansoni |  | female worms | 50 µM |  | worm killing | 0%
COc1ccc(C2OC(=O)c3ccc(-c4ccccc4)c(O)c32)c(OC)c1OC (stereo not shown) | Naegleria fowleri | parasite growth, resazurin |  | 48 h |  | IC50 | 12.9 µM
CN(C)c1cc(CNC(C)(C)C)c(O)c2c1C[C@H]1C[C@H]3[C@H](N(C)C)C(O)=C(C(N)=O)C(=O)[C@@]3(O)C(O)=C1C2=O | Streptococcus pneumoniae | microbial growth, broth dilution |  |  |  | MIC | 2 µg/mL (≈ 3.69 µM)
CCCCCn1ccc([C@H](C)[C@](O)(Cn2cnnn2)c2ccc(F)cc2F)n1 | Candida tropicalis | growth, broth microdilution | 2718 | 24 h, 30 °C, ≥50% inhibition |  | MIC | > 4 µg/mL
Cc1ccc2nc(-c3ccc(F)c(F)c3)cn2c1 | Trypanosoma cruzi |  | 3T3 host cells, Tulahuen beta-galactosidase | 6 days |  | EC50 | > 5 µM
CC[C@H](C)[C@H](NC(=O)[C@H](CCCCN)NC(=O)[C@H](CC(N)=O)NC(=O)[C@H](CC(C)C)NC(=O)[C@H](Cc1ccccc1)NC(=O)[C@H](CCCCN)NC(=O)[C@H](CCCCNC(=N)N)NC(=O)[C@H](CC(C)C)NC(=O)[C@H](CC(C)C)NC(=O)[C@H](CCCCN)NC(=O)[C@H](CCCCNC(=N)N)NC(=O)[C@H](CC(C)C)NC(=O)CNC(C)=O)C(=O)N[C@@H](CCCCN)C(=O)N[C@@H](CCCCNC(=N)N)C(N)=O | Gram-negative bacteria |  |  |  |  | geometric mean MIC | 4.42 µM
COc1ccc(Nc2c(C#N)cnc3ccc(Cl)cc23)cc1 | Trypanosoma cruzi | parasite growth |  | 72 h, epimastigote |  | IC50 | < 1 µM
CNC1=C([N+](=O)[O-])C2(C(=O)Nc3ccc(Cl)cc32)C2=C(O1)C(=O)c1ccccc1C2=O (stereo not shown) | Streptococcus pneumoniae |  | MTCC 655 | 250 µg/mL, 24 h |  | growth inhibition | 100%
CCCOC(=O)N1c2cc(CNC)ccc2[C@H](NC(=O)C(=O)Nc2ccc(Cl)c(F)c2)[C@H]1CNC(=N)N | amphotropic murine leukemia virus | viral infection | Cf2Th-CD4/CCR5 |  |  | IC50 | > 300 µM
